Results gathered from unrelated publications.
Each line is one published result; not all experiments were run side by side.
Matrix: urine

Under “amount excreted in urine (0-48 h)”, `CN[C@@H]1COc2c(S(=O)(=O)NC(=O)Nc3c4c(cc5c3CCC5)CCC4)cnn2C1` is recorded as 247 mg (human; oral, 1800 mg, 0-48 h).
For `CC(C)n1c(C2CCNCC2)nc2c([N+](=O)[O-])c(Br)c(Br)cc21`, “amount excreted in urine” read 4.81 mg (human; oral, 150 mg, 0-24 h, median, single dose).
`CC(=O)N(C)[C@H]1CCN(C(=O)c2cnc3c(c2)C[C@](C)(c2ccc(F)cc2)N3)C1`: “amount excreted in urine” 42700 nmol (healthy male human; oral, 30 mg once daily, 0-48 h steady state, geometric mean).
`NCCONC(=O)[C@@H]1CC[C@@H]2CN1C(=O)N2OS(=O)(=O)O`: “amount excreted in urine (0-24 h)” 918 mg (human male; intravenous infusion, 1 g multiple doses, day 9).
For `CC(C)(Sc1ccncc1-c1ccc(C#N)c2ccccc12)C(=O)O`, “amount excreted in urine (0-24 h)” read 0.189 mg (human; oral, 10 mg, with: febuxostat 0 mg).
`Oc1ccc([C@@H](O)c2cc(-c3ncnc4cc(N5CCOCC5)ccc34)c(F)cc2Cl)nn1` — result for “amount excreted in urine”: 5.2% (healthy human volunteers; 0-24 h, high-fat fed tablet, geometric mean; reference: dose).
Under “amount excreted unchanged in urine”, `Cn1cc(-c2cn3nccc3c(-c3cnn([C@]4(CC#N)C[C@@H](C#N)C4)c3)n2)cn1` is recorded as 2.6 mg (healthy humans; oral, 200 mg twice daily, day 10, dosing interval).
`C=CC(=O)Nc1cc(Nc2ncc(C(=O)OC(C)C)c(-c3cn(C)c4ccccc34)n2)c(OC)cc1N(C)CCN(C)C` — result for “amount excreted in urine”: 0.83 mg (healthy human; oral, 120 mg single dose, 0-48 h, arithmetic mean).
